Experimental data from different studies.
Every numbered part comes from another study and shows a few of its results, in no order. Values joined by “and” are separate records of one study, mostly repeats; a detail may differ.

Series 1
SMILES: Cn1cc(-c2cccc(CN3CCC4(CC3)COc3c4ccc4c3CN([C@H]3CCC(=O)NC3=O)C4=O)c2)cn1
cynomolgus monkey; oral, 3 mg/kg — Tmax: 2 h.
cynomolgus monkey, plasma; intravenous, 1 mg/kg — Tmax: 0.08 h.
rat; oral, 3 mg/kg — Tmax: 4 h and 2 h.
It gave 2 h for Tmax (cynomolgus monkey, plasma; oral, 3.02 mg/kg).
It gave 0.08 h for Tmax (rat, plasma; intravenous, about 1 mg/kg).
It gave 0.08 h for Tmax (rat, plasma; intravenous, 1.02 mg/kg, group mean).
For rat, plasma; oral, 2.98 mg/kg, group mean: Tmax read 2.67 h.
cynomolgus monkey; intravenous, 1 mg/kg — Tmax: 0.08 h.

Series 2 — read-out: binding; technique: HTRF; concentration: 111.11 nM
Target: Membrane-associated tyrosine- and threonine-specific cdc2-inhibitory kinase (PKMYT1, Homo sapiens, UniProt Q99640)
Residues (Q99640 1-499): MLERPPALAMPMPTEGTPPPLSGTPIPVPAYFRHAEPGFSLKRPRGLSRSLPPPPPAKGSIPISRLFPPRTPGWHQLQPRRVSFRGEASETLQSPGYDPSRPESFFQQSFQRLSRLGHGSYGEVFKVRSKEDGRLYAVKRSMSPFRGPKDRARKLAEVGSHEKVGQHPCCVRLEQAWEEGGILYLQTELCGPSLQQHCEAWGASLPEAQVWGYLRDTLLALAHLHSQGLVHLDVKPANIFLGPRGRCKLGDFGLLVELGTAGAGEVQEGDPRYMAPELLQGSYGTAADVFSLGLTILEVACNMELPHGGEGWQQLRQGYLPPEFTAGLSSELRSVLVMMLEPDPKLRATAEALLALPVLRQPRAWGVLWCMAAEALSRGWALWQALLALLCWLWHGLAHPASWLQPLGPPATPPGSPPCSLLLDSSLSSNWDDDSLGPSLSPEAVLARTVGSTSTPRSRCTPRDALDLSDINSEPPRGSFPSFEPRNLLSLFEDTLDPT
For Cc1ccc(O)c(C)c1-c1cnc2[nH]c(-c3cnc(N4CCC(CN5CCN(c6ccc7c8c(cccc68)C(=O)N7C6CCC(=O)NC6=O)CC5)CC4)nc3)cc2c1C#N (racemic), the inhibition was 96.5% and 96.4%.
With Cc1ccc(O)c(C)c1-c1cnc2[nH]c(-c3cnc(N4CCC(CN5CCN(c6ccc(C(=O)NC7CCC(=O)NC7=O)c(F)c6)CC5)CC4)nc3)cc2c1C#N (racemic) the inhibition was 98.2% and 98.3%.
Cc1ccc(O)c(C)c1-c1cnc2[nH]c(-c3cnc(N4CCC(CN5CCN(c6ccc(N7CCC(=O)NC7=O)cc6F)CC5)CC4)nc3)cc2c1C#N gave an inhibition of 98.1%.

Series 3 — organism: Staphylococcus aureus; strain: USA300; concentration: 2 x MIC
Compound: CCCCC[C@@H]1CC(=O)N[C@@H](C(C)C)C(=O)N[C@H](CCC(=O)O)C(=O)N[C@@H](CCCNC(=N)N)C(=O)NCC(=O)N2CCC[C@H]2C(=O)N[C@@H](CC(C)C)C(=O)N[C@H](CCC(N)=O)C(=O)N[C@@H](CCC(=O)O)C(=O)N[C@H](Cc2ccc(O)cc2)C(=O)N[C@H](Cc2c[nH]c3ccccc23)C(=O)NCCCC(=O)O1
It gave 4500 CFU/mL and 4300 CFU/mL and 4900 CFU/mL for viable cells (15 min).
The viable cells was 500 CFU/mL and 700 CFU/mL and 800 CFU/mL (180 min).
It gave 1500 CFU/mL and 1300 CFU/mL and 1400 CFU/mL for viable cells (60 min).
It gave 400 CFU/mL and 300 CFU/mL and 600 CFU/mL for viable cells (240 min).

Series 4 — host: male CD-1 mouse; route: subcutaneous; dose: dose not given
Structure (SMILES): COc1cc(C(=O)OCCCN2CCCN(CCCOC(=O)c3cc(OC)c(OC)c(OCc4ccc([N+](=O)[O-])cc4)c3)CC2)cc(OC)c1OC
For dorsal root ganglia; 8 h: tissue concentration read 137 ng/mL.
For dorsal root ganglia; 12 h: tissue concentration read 23.1 ng/mL.
dorsal root ganglia; 0.1667 h — tissue concentration: 641 ng/mL.
It gave 159 ng/mL for tissue concentration (trigeminal ganglion; 1.5 h).
It gave 269 ng/mL for tissue concentration (dorsal root ganglia; 1.5 h).
It gave 34.3 ng/mL for tissue concentration (trigeminal ganglion; 8 h).
trigeminal ganglion; 0.5 h — tissue concentration: 77.7 ng/mL.
The tissue concentration was 4.25 ng/mL (dorsal root ganglia; 24 h).

For quick reference, copied from above (series 4):
It gave 34.3 ng/mL for tissue concentration (trigeminal ganglion; 8 h).
trigeminal ganglion; 0.5 h — tissue concentration: 77.7 ng/mL.
The tissue concentration was 4.25 ng/mL (dorsal root ganglia; 24 h).
